Assay results gathered from unrelated publications.
A part holds a random share of what one study measured.

Set 1 — method: protein-binding microarray; form: hairpin DNA; medium: in vitro; concentration: not given; baseline: not given; direction: higher = stronger binding; all sequences stand within: GAGGCC … GGCCTCACACTCTT
Target: POU domain, class 6, transcription factor 1, POU and homeodomain (POU6F1, Homo sapiens, UniProt Q14863, residues 311-611)
Notes: whole hairpin DNA, median over replicate spots
Construct (chain): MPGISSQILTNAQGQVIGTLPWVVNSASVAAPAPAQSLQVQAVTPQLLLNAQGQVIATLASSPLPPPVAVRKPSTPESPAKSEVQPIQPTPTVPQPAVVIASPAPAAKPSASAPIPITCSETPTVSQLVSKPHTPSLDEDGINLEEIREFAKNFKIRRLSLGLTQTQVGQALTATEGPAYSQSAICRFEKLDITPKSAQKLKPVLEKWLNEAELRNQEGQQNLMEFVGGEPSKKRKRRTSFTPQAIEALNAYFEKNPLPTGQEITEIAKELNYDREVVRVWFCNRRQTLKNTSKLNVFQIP
Oligonucleotide	median fluorescence
GTAATTAGGTGCCTCCTGGCACCTAATTAC	1120 a.u.
ATTATTAGGTGCCTCCTGGCACCTAATAAT	579 a.u.
ATAATTGGGTGCCTCCTGGCACCCAATTAT	587 a.u.
ATAATTAGGTGCCTCCTGGCACCTAATTAT (5mC at 28)	2010 a.u.
ATAATGAGGTGCCTCCTGGCACCTCATTAT (5mC at 29)	1520 a.u.
CTAATTAGGTGCCTCCTGGCACCTAATTAG (5mC at 7)	1370 a.u.
ATAATTTGGTGCCTCCTGGCACCAAATTAT	607 a.u.
ATGATTAGGTGCCTCCTGGCACCTAATCAT (5mC at 34)	470 a.u.

Set 2 — organism: Saccharomyces cerevisiae; observed: cell growth; method: competitive growth deep sequencing; form: peptide; notes: peptide tiling library; together with: cyclin F-Cln2 fusion; direction: direction not given
Sequence	enrichment score
KRNLLNEFDRII	3.58
PAKRRLELGE	3.51
PARRRLRLSVDEVSSP	3.48
PKNAKRNLSSEFAN	-0.463
DGCSPIKNWSPMRL	0.678
SMTDFYHSKRRLIFSK	3.08
FQDSGYNELKSCSFDN	0.667
PKRAKRKLYTSEISSP	1.2

Set 3 — method: RNA Bind-n-Seq; form: RNA; medium: in vitro; concentration: 90 pmol; notes: 4-mer, random 30-nt RNA, single round; baseline: input library; direction: higher = stronger binding
Target: ATP-dependent RNA helicase DDX3X, helicase core (DDX3X, Homo sapiens, UniProt O00571, residues 132-607)
Sequence of UniProt O00571 (132-607, looked up): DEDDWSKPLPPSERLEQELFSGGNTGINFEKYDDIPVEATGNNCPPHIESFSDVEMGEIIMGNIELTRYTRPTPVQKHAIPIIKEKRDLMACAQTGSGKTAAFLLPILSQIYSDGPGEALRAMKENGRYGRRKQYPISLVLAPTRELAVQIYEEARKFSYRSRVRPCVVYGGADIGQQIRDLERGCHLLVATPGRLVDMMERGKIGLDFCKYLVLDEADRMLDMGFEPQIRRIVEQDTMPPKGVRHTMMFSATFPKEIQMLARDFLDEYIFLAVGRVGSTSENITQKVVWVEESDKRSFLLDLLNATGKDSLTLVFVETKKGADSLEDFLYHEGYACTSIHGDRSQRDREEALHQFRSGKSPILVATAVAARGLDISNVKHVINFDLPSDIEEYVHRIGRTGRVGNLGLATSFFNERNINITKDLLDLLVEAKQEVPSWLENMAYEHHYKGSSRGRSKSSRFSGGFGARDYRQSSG
Together with: 3 µM iPr-DMDA-PatA, 2 mM ADP, 2 mM phosphate
Oligonucleotide	4-mer enrichment [fold]
UCAC	1.06
GCGA	0.961
AGCG	1.02
GCGG	0.768
CCGC	0.846
ACAG	1.07
ACUU	0.963
UACU	0.96

Single results of other studies
Structure (SMILES)	target	assay	conditions	endpoint	value
O=C(NCc1ncc(C(F)(F)F)cc1Cl)c1ccc2c(c1)C1(CCS(=O)(=O)CC1)[C@@H](C1CC1)N2S(=O)(=O)c1ccc(F)cc1	Cyclin-dependent kinase 2 (CDK2, Homo sapiens, UniProt P24941)	cell-free assay, competition with immobilised ligand	1 µM	remaining binding	100%
